Published values from different studies.
A part holds a random share of what one study measured. Substitutions count along the parent as printed.

Study 1 — technique: RNA Bind-n-Seq; molecule type: RNA; sample: in vitro; tested at: not given; reference: input RNA pool; direction: higher = stronger binding; endpoint: bound/input enrichment
Target: RING finger protein unkempt homolog, zinc fingers 1-6, GST-SBP tag (UNK, Homo sapiens, UniProt Q9C0B0, residues 30-357)
Chain of UniProt Q9C0B0 (30-357, looked up): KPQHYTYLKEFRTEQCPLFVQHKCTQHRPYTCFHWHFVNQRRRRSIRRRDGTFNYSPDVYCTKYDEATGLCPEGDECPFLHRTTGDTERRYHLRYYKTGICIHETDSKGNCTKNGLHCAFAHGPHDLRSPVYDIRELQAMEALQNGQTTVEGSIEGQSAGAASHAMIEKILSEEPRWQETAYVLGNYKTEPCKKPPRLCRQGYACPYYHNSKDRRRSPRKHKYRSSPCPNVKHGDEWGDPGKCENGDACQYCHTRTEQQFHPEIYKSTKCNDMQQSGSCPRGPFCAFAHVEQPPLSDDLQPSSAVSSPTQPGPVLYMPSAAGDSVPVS
Setting: RNA with constant flanks, human and mouse sites, ends assumed
Constant ends, left off below: GGGAGUUCUACAGUCCGACGAUC … CAACAGAGGAUUGAGCAUCA
GCAGAGAUGGAGAACAUUAAGGCAAUUGCCACAGUCUCUGAGAAUACUAAGCAAGAAGCUAUAGAUGAAGUUAAAAGGCAAUGGAGAGAAGAAGUUGCUUCACUUCAGGCUAUAAUGAAA: 0.476 ratio
CAUGAAGGAUGCCAAGAAGUUUAAGGAAUAUGGGAGAAAUAGUGUGGAAAUUAAGAAGAAACUAGGUCUGAUAUUCAAAUGGACAAACUGCCAGUUUUGUUUCCUUUCACUGGCCACAGU: 0.64 ratio
AGCAUGUUUAUAAUGUGCGCAGGACAAGCUUGAGAAUGGUCAUUGUGGUUAAUGUGCUGGUUAGUUGACGUUAUGACUACUUUAAGGAUUGUGACACACUCCUACUGAAAAACCUCAGUG: 0.152 ratio
CAUAAUUUGAAGGACCGCUACUAUUCAGGACUUAUCUAUACUUACUCUGGACUCUUCUGUGUGGUGAUAAAUCCUUACAAGAACCUUCCAAUUUACUCUGAGAAUAUUAUUGAAAUGUAU: 0.352 ratio
UGUUUUUAAGGGAAAUGAAUAGAAACAAUCCACUUUGAAGAAGCCAUGGCGAAAUCAAAGACAAAACAUAGACUUUGUUCUCAGGAAUCUUCAGUAUCUGCCCUGCUGGCAAGCUGCACC: 0.421 ratio
GGGACCGUCAAAAGCGACAAAGCAAAAACAAAGCCACCGCUUCAAGUAACAAAGGUAGACAAUAAUUUGACAGUAGAGAAAGCCACCAAGAAAACAGUUGUUGGGAAGGAGAGUAAACCU: 0.961 ratio
GUUUACAUCUUUGGUGACGGACGAGGCCUUAUAGAAGGAAAUGACAUUUAUGGUAAUGCGUUAGCAGGAAUUCAGAUCAGGACAAACAGUUGUCCUAUUGUUCGACAUAACAAAAUUCAU: 0.409 ratio
AUUGCAAGGAAGAUCAUUAAGGACGGUGAGCAACAUGAAGAUCUCAAUGAAGUAGCUAAACUCUUCAACAUUCAUGAAGAUUGAAUCCCAAUCGUGGAAUACACAAGCACUUUUCCAUCC: 0.104 ratio
ACUACCCUUUCUGGGGUCCAAGAAGAAUCUGCCCUUUGCUAUCUUCUCCAAGUUGAUGAGUUUAGAUUUUUAUUGGACUGUGGCUGGGAUGAGCACUUUUCUAUGGAUAUUAUUGAUUCC: 0.461 ratio
CAAAUUCUGAUUUUAUUUUGCAUCUUAAUUGCCAUGUCUCUUGUGUGUUCUGUGGGCUCAGCCAUUUGGAACCGAAGGCAUUCCGGGAAAGACUGGUACCUCCAUCUACACUAUGGUGGC: 0.261 ratio
AAGAUUGAAGGAUUUGAGGUACUGAAGAAAGUGAAGACUCUCUGCCUCCGCCAAAAUUUAAUUAAAUGCAUUGAGAAUCUGGAGGAGCUACAGAGUCUUCGAGAGCUGGAUCUUUACGAC: 0.123 ratio

Study 2 — target: CCNA2, cyclin fold, Cln2 fusion (human); technique: yeast growth competition, sequencing; sample: yeast; setting: strong parent motif; reference: not given; direction: higher = stronger binding; endpoint: normalised enrichment score
Parent: CDKN1A docking peptide (human); SKACRRLFGPVDS
SCACRRLFGPVDS [K2C]: 4
SKACRELFGPVDS [R6E]: 4.41
SKACRRLFGPFDS [V11F]: 5.43
SKACRRLPGPVDS [F8P]: 0.31
SKACRRVFGPVDS [L7V]: 0.888
SKACRRLFGPTDS [V11T]: 6.05
SKACVRLFGPVDS [R5V]: 2.52
SKACRRLFAPVDS [G9A]: 6.04
SKACRRLFGIVDS [P10I]: 4.9
SKACRRLFPPVDS [G9P]: 5.96
SKACRRLFGPVMS [D12M]: 5.54
SKACRRLFGPVWS [D12W]: 4.82
SKACRRMFGPVDS [L7M]: 0.958
SKWCRRLFGPVDS [A3W]: 2.09
SKACRRLFGLVDS [P10L]: 4.52
STACRRLFGPVDS [K2T]: 5.25
SKAERRLFGPVDS [C4E]: 0.245
SKACRRLFGPHDS [V11H]: 5.52
SKACRRLFQPVDS [G9Q]: 5.84
SKACRRLFDPVDS [G9D]: 5.4
SKACRRGFGPVDS [L7G]: 0.195
SKACRRLTGPVDS [F8T]: -0.0734

Study 3 — technique: RNA Bind-n-Seq; molecule type: RNA; sample: in vitro; tested at: 365 nM; reference: no-protein control; direction: higher = stronger binding; endpoint: RBNS enrichment (R)
Target: RNA binding protein fox-1 homolog 2, RRM domain, GST-SBP tag (RBFOX2, Homo sapiens, UniProt O43251-10, residues 100-194)
Setting: natural RNA segment, single round, ends assumed
Constant ends, left off below: GGGAGUUCUACAGUCCGACGAUC … UGGAAUUCUCGGGUGCCAA
Residues (chain): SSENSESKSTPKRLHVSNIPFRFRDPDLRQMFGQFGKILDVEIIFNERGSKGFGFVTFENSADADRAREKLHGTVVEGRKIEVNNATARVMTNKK
UGUGUGUGUGUGCCAGAGUAGCUGCAUUCUGAUUCACUAAUCCCUCAUUUUAAUGUGUGCCUUAUGCCUUGAAUGGACCAGCUGAGAUCACUAUAUUUAUUCAAGCUGUG: 1.35
AUAUUGAGUCUAGGCUCCAAUUACUCUCUAUCCUGUCUUUAGAGAGCUGUGAUUGAGUGUGCUAUUAUUUGGAAGGAGAAAAUGUAAAUUGAGAUAGCUGUAGUGUUUAU: 1.2
GUGCUGUUUUCCAUUCGCUUCCACGGCUUCUGCCUCCUGCCAUAAAACCAGCGAGUGUCGUGGUGCAGGCAGGCCCUGUGGCCUGCUGGGCUGAGGGAAGUCAGAGCCCC: 0.268
GGACCCAGAUGAUGGCUUCUCAGGGCAAGUCAUAAGUUAUCAGGUCCACUUGUCUGGAAGAAUAACAAGAAAGCUGCUGCUUUCGAGAUCACCCGCCAGAGGCGGGGCAC: 0.29
CACAGACGUGGGCCUGGGCCUUCUCAGCAGCCACCUUCUAGCUGGGGGCUAGUAGCUGACCUGCUGCCUCCUGCCCUACUUGUGUGGACAGGAGGCCCACGGGCACUGGG: 0.324
UAUUGAAUUUAUUUCUUAUUAAAAUAUGUAGUUUUUAAGACUUUUUUUCUGACAGUAUUAUGUAAUUUUUUAGCGUGGGUAGAUGGGAGUGUCGCUUGUAUGUUAUCGUA: 2.4
UCAUGCUUCUUCUCAUGGGGUGGGGUUGGGGCAAAGCCUCCUUUUUAAUACAUUAAGUGGGGUAGACUGAGGGAUUUUAGCCUCUUCCCUCUGAUUUUUCCUUUCGCGAA: 0.447
UCCCCCAUUCUGCUGCCUUUGGGACACUGUUUUCGUUAAACUUGGUCUUGGCUGCAUUCUUUUUUUUCCCUCGUGGGGUUCAAAAGAAUAAACAUUUUCUUACUGAUAAA: 0.781
UAGAAUAGAAAAUAGAACAUUAUUCAAGUUAAUUGAAAGGUGAGGUUUUUAUACCCCCACUAAUGCUGUGUAUCUGUCUUUCGUUUGUUAACAUUAUUUGCUUAAUUUCU: 0.31
CAUUGUACAAAGUUCAAGGCUAAGAGUUCUGAAUUCUGGCGUCAGCUUCCUCAGGAUUUUCUUCAGUUGCAAGUACCUUUCCACUGAAAAUAUGAGCAUGCCCGCCUGGC: 0.97
GGAGGUGUCCUGUCUUUUUAAAAUCAGUGCCAAGUGUGUCAGCAGGGGGCAUGAACAAAAACCAGUGCCUCGUUGUGCACAGUCCUCUAAAAGUAGCAUUCUUAUCUGUU: 0.429
UUUAAAAAACAAAAAAUGACAAGAGAGAUGAAAACGUUUGAUUAUUUUCUCAGUGUAUUUUUGUAAAAAAUAUAUAAAGGGGGUGUUAAUCGGUGUAAAUCGCUGUUUGG: 0.594

Study 4 — technique: protein binding microarray; molecule type: double-stranded DNA, one strand shown; sample: in vitro; tested at: not given; reference: not given; direction: higher = stronger binding; endpoint: E-score
Target: Histone acetyltransferase KAT6A, winged helix 2, GST fusion (KAT6A, Homo sapiens, UniProt Q92794, residues 85-181)
Setting: 8-mer, flanks averaged, mean of 2 arrays, mostly near background
Target sequence (chain): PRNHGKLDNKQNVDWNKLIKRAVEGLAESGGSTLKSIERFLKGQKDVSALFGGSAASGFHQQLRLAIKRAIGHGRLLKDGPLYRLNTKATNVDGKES
CGGTCTAA: -0.0691
GGGCTAAA: 0.0143
CGCTCCCG: 0.0374
ATATTTAG: 0.0543
ACCCTTAC: -0.211
AACACATA: 0.063
AGCAGTAA: 0.0686
CAAGACAG: -0.0946
ACGAGGCT: 0.0878
AGCGCGGA: 0.152
CAGAGTAA: 0.0348
ACGCCATC: -0.113
GTCCCCTA: -0.00298
CTACAATC: 0.0152
CACCCTCG: -0.04
GTCCTTTA: -0.0592
CCTACGAA: -0.064
AAGGAGAC: -0.029
AAATGGAA: 0.0366
AACATGAA: -0.123
CTCTACGC: -0.0117
AGATTCTA: 0.0273
CGACCGAA: 0.158

A few entries again (study 4):
AGATTCTA: 0.0273
AACATGAA: -0.123
AGCGCGGA: 0.152
CAAGACAG: -0.0946
AACACATA: 0.063
ACGAGGCT: 0.0878
CGACCGAA: 0.158
